# Measured values collected from several papers.
# Each numbered part is a random draw from the data of one study; scales do not carry over between parts.

# Series 1 — technique: RNAcompete; molecule type: RNA; matrix: in vitro; concentration: 20 nM; setting: 7-mer, probes averaged, single round; reference: mean of 7-mers; direction: higher = stronger binding
# Target: PABPC1L2, full length, GST fusion (mouse, UniProt A0ABA7IW68)
Sequence,7-mer Z-score
UCGGCCA,-0.0881
CUCCAGU,-0.237
CAUACAC,-0.0863
AUUAUCC,-0.269
ACUGCGU,-0.262
UCUUUAC,-0.186
ACUAUGG,0.0334
AUACGUA,-0.0917
UACGUAG,-0.108

# Series 2 — technique: protein binding microarray; molecule type: double-stranded DNA, one strand shown; matrix: in vitro; concentration: not given; reference: not given; direction: higher = stronger binding
# Target: Histone acetyltransferase KAT6A, winged helix 2, GST fusion (KAT6A, Homo sapiens, UniProt Q92794, residues 85-181)
# Setting: 8-mer, flanks averaged, mean of 2 arrays, mostly near background
# Residues (chain): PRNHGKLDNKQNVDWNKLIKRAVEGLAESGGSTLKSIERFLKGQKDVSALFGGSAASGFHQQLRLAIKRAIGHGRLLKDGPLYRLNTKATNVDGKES
Sequence,E-score
CAAAGGGC,0.0684
CGCAAAAG,0.0456
CCCAATAA,-0.222
ACAATCCC,0.0468
GCACTAGC,0.0621
GTCCATAA,-0.131

# Series 3 — technique: protein-binding microarray; molecule type: double-stranded DNA, one strand shown; matrix: in vitro; concentration: 2540 nM top; setting: 60-bp whole probe; with: salmon DNA 0.4 mg/ml; reference: random background probes; direction: higher = stronger binding; all sequences stand within: GCCTAGCAC … GTCTTGATTCGCTTGACGCTGCTG
# Target: Interferon regulatory factor 3, full length, phosphomimetic (IRF3, Homo sapiens, UniProt Q14653, residues 1-427, S386D/S396D/S398D/S402D/T404D/S405D)
# Residues (chain): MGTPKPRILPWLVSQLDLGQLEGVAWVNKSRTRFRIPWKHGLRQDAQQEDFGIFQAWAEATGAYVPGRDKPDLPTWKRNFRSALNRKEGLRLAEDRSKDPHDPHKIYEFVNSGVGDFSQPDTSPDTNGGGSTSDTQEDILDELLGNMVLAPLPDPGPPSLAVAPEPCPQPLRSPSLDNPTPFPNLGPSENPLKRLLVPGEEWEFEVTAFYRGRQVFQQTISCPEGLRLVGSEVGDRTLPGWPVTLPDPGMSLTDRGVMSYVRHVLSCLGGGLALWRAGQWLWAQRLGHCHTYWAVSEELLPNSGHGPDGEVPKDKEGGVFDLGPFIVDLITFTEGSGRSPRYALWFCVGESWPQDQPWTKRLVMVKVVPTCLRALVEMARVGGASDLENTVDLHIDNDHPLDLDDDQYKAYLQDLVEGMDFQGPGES
Sequence,fitted relative affinity
GACGGTATCCTACTGCAGACGTGCTAG,2.77 z-score
TACGGTTTCGGGTTTCGGGACGTGCTA,5.69 z-score
TTAGAACTTGGGTTTCGATTAGTGCTA,1.55 z-score
GACGGACTCGGACTGGGGACGTGCTAG,-0.328 z-score
GACAATATCAGTTTCGAGACGTGCTAG,3.87 z-score

# Further values, each from its own experiment
Molecule,target,assay,system,conditions,how to read,measurement,value
"PhoQ, residues 284 288 289 292 302 303 AGGLSV","PhoP, residues 12 14 15 18 19 LYHSL (Escherichia coli, UniProt P23836)","Sort-seq, measured: YFP reporter",E. coli,"PhoQ-PhoP variant library, with: 10 µM Mg2+","reference: high Mg2+ state, higher = stronger signaling",fold induction,13.2

# Some of these lines once more (series 2):
Sequence,E-score
CGCAAAAG,0.0456
CCCAATAA,-0.222
